Measured values gathered from unrelated publications.
Every numbered part comes from another study and shows a few of its results, in no order.
Sequence of UniProt P49761 (whole entry, looked up): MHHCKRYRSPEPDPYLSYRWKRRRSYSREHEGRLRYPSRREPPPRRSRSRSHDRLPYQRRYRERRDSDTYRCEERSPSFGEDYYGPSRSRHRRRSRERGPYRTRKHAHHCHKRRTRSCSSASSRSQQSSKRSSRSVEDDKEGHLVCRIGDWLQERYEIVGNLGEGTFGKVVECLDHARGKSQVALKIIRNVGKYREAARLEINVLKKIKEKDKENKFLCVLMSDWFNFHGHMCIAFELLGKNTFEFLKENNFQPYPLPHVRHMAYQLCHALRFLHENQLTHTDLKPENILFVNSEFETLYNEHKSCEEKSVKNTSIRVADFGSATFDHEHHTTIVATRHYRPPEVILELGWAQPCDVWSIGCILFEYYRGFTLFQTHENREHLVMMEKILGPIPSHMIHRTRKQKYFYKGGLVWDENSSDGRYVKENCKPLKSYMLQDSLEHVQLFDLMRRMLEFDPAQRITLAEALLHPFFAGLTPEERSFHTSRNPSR
Sequence of UniProt Q13163 (whole entry, looked up): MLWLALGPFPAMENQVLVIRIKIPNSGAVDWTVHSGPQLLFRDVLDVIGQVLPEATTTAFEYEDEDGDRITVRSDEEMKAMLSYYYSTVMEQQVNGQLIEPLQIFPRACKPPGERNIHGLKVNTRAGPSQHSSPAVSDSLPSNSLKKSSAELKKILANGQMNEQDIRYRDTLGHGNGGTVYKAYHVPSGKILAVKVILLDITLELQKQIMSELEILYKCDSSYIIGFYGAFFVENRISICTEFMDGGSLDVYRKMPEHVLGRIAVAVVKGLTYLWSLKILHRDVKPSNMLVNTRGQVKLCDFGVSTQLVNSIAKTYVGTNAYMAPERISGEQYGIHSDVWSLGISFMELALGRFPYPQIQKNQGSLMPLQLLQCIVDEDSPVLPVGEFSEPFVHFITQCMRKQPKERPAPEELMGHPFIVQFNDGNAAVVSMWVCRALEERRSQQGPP
Sequence of UniProt Q6PHR2 (whole entry, looked up): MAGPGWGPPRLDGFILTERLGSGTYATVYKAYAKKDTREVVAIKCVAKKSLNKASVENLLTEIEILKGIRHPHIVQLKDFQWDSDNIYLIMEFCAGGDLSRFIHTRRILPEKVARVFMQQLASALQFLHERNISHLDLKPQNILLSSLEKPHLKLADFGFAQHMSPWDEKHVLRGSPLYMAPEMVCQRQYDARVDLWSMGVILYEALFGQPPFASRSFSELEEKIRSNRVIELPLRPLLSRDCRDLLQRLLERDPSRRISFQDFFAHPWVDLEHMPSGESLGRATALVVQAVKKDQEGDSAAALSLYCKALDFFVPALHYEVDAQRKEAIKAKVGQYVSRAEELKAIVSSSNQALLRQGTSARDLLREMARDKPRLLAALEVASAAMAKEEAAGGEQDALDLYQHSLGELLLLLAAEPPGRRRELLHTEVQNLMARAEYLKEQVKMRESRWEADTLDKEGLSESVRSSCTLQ
Sequence of UniProt O15111 (whole entry, looked up): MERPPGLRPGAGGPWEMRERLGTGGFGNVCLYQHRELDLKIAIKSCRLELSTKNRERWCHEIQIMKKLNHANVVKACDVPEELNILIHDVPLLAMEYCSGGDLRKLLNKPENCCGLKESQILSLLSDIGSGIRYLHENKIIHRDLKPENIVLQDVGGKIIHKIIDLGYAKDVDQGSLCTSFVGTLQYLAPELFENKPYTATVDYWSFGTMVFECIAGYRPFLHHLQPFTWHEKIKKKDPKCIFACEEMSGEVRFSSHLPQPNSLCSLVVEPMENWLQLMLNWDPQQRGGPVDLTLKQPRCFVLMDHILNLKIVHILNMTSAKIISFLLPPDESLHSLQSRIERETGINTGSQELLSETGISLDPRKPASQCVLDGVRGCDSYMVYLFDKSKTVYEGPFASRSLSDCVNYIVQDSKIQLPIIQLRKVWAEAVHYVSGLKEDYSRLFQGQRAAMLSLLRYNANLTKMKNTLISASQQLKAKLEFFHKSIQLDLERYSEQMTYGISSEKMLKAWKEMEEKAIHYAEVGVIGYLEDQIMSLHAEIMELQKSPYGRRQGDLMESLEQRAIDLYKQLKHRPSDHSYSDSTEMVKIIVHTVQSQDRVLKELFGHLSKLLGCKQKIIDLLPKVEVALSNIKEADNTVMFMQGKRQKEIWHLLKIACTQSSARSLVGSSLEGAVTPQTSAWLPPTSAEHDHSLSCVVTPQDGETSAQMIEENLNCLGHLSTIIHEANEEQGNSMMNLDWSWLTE
Sequence of UniProt Q96L34 (whole entry, looked up): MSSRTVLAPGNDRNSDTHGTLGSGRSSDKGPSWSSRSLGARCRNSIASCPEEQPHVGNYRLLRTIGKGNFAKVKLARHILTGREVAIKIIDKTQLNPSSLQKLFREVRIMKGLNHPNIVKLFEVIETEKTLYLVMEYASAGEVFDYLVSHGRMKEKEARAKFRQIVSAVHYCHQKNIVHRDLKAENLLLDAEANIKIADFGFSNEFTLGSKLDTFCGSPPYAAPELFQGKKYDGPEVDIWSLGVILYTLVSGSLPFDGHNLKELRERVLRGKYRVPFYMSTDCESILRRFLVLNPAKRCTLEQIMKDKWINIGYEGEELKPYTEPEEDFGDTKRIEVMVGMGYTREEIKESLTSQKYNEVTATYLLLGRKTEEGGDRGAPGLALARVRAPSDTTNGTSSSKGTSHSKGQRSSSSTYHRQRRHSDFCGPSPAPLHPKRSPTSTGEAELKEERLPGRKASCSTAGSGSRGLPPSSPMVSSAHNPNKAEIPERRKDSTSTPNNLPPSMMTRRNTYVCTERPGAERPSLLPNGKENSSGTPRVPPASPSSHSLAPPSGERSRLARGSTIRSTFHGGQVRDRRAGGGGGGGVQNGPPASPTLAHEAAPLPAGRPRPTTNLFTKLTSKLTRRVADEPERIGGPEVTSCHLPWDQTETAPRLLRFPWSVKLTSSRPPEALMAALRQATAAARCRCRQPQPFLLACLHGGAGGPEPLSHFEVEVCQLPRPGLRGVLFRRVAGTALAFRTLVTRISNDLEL
Sequence of UniProt Q8N4C8 (whole entry, looked up): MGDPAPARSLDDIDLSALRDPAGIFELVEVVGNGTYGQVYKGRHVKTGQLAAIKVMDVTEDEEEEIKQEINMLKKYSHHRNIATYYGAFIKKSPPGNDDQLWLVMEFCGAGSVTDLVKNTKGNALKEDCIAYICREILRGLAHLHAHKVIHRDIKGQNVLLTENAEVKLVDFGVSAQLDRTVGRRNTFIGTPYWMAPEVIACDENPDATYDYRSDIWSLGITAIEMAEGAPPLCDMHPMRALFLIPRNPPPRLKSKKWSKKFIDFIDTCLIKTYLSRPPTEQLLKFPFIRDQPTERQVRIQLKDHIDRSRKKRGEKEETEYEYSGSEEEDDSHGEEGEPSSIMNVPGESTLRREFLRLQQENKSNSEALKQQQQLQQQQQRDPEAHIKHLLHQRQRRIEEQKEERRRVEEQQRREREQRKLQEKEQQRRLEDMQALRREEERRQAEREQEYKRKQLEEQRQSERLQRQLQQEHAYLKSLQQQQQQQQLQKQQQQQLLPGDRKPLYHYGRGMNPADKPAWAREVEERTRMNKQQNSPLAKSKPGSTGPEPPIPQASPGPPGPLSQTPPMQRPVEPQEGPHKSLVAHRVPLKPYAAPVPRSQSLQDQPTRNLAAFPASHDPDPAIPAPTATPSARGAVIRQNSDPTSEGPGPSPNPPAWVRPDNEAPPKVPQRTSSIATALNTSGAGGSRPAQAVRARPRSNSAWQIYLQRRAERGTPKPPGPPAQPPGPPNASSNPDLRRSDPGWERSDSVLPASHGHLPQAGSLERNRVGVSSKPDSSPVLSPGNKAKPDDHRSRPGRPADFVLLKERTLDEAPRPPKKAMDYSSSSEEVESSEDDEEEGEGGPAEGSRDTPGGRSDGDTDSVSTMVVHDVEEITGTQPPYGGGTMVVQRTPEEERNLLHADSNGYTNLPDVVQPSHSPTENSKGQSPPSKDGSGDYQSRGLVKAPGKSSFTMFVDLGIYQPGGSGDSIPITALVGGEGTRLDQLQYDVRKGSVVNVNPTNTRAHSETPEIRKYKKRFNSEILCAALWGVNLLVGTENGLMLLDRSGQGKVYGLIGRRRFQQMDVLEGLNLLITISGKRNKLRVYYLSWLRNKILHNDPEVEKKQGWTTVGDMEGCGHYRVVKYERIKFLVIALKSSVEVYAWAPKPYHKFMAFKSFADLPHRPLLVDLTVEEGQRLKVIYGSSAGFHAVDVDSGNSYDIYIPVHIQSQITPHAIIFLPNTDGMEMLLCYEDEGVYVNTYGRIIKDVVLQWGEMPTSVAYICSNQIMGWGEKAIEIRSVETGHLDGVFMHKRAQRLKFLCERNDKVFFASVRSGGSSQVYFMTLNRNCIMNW
Sequence of UniProt Q15759 (whole entry, looked up): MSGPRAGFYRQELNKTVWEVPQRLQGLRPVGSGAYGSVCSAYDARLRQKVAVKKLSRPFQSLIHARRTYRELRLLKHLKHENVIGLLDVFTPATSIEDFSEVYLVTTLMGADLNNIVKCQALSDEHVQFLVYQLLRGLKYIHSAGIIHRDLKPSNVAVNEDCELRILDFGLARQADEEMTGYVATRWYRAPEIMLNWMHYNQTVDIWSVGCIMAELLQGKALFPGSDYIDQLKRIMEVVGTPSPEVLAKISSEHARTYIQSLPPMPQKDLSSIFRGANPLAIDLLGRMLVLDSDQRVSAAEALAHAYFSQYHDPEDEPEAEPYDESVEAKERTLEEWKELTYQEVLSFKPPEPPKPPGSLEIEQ
Sequence of UniProt Q9P289 (whole entry, looked up): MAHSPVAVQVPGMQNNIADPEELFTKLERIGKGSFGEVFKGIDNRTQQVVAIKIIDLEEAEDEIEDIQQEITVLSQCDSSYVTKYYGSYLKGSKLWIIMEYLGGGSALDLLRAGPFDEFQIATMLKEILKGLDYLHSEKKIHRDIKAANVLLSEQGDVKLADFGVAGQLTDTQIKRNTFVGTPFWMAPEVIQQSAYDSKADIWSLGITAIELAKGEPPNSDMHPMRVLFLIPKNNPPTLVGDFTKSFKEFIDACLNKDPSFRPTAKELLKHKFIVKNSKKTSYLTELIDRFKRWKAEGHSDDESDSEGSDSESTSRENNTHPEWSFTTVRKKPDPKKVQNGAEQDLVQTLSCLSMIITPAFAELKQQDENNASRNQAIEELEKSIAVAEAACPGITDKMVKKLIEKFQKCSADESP

Set 1
SMILES: Cn1nc2c3c(cccc31)C(=O)c1ccccc1-2
Effect on: enzyme activity
Mode: inhibitor
Tested at: 0.5 µM
Reference: control
Endpoint: remaining activity
target = AKT2 (Homo sapiens, UniProt P31751); value = 98.9%
target = MAPK1 (Homo sapiens, UniProt P28482); value = 91.7%
target = KDR (Homo sapiens, UniProt P35968); value = 101%
target = MINK1 (Homo sapiens, UniProt Q8N4C8); value = 92.3%
target = TXK (Homo sapiens, UniProt P42681); value = 92%
target = PAK3 (Homo sapiens, UniProt O75914); value = 101%
target = Myosin-IIIb (MYO3B, Homo sapiens, UniProt Q8WXR4); value = 97.7%
target = MAPK14 (Homo sapiens, UniProt Q16539); value = 93.6%
target = MARK4 (Homo sapiens, UniProt Q96L34); value = 91.1%
target = CAMK4 (Homo sapiens, UniProt Q16566); value = 100%
target = MAPK11 (Homo sapiens, UniProt Q15759); value = 109%
target = CLK3 (Homo sapiens, UniProt P49761); value = 98.5%
target = Cyclin-dependent kinase 1, with cyclin A (CDK1, Homo sapiens, UniProt P06493); value = 88%

Set 2
Target: Protein max, full length (MAX, Homo sapiens, UniProt P61244-2, residues 1-151)
Technique: protein-binding microarray
Form: double-stranded DNA, one strand shown
Sample: in vitro
Tested at: not given
Setting: k-mer, scored over probes, only values ≥0.25
Direction: higher = stronger binding
Endpoint: E-score
Oligonucleotide = GGGCCGCA; value = 0.252
Oligonucleotide = CCACGCGA; value = 0.422
Oligonucleotide = CCATCTGC; value = 0.296
Oligonucleotide = ACGTGAGC; value = 0.363
Oligonucleotide = CATGAGCA; value = 0.3
Oligonucleotide = ACGCGCGT; value = 0.369
Oligonucleotide = CACGCTAC; value = 0.4
Oligonucleotide = CACCTGGA; value = 0.297

Set 3
Compound: CCCCN(CCCC)C(=O)CN1C[C@@H](c2cc(OC)c3c(c2)OCO3)[C@H](C(=O)O)[C@H]1CC(C)(C)CCC
Effect on: cell-free assay
Technique: competition with immobilised ligand
Tested at: 1 µM
Endpoint: remaining binding
target = FLT3 (Homo sapiens, UniProt P36888, D835V); value = 78.8%
target = AKT3 (Homo sapiens, UniProt Q9Y243); value = 100%
target = EGFR (Homo sapiens, UniProt P00533, del746-750); value = 70.3%
target = SNRK (Homo sapiens, UniProt Q9NRH2); value = 98.4%
target = EGFR (Homo sapiens, UniProt P00533, T790M); value = 86.7%
target = CDKL2 (Homo sapiens, UniProt Q92772); value = 39.2%
target = Ribosomal protein S6 kinase alpha-5, N-terminal kinase domain (RPS6KA5, Homo sapiens, UniProt O75582); value = 74.4%
target = FGFR1 (Homo sapiens, UniProt P11362); value = 100%
target = MAP2K5 (Homo sapiens, UniProt Q13163); value = 100%
target = MYLK3 (Homo sapiens, UniProt Q32MK0); value = 100%
target = CHUK (Homo sapiens, UniProt O15111); value = 100%
target = ULK3 (Homo sapiens, UniProt Q6PHR2); value = 90.7%
target = STK26 (Homo sapiens, UniProt Q9P289); value = 100%

Set 4
Target: Histone acetyltransferase KAT6A, winged helix 1, GST fusion (KAT6A, Homo sapiens, UniProt Q92794, residues 1-85)
Technique: protein binding microarray
Form: double-stranded DNA, one strand shown
Sample: in vitro
Tested at: not given
Setting: 8-mer, flanks averaged, mean of 2 arrays, mostly near background
Reference: not given
Direction: higher = stronger binding
Endpoint: E-score
Construct (chain): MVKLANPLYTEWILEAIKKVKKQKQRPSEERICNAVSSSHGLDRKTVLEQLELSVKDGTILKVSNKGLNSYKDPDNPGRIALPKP
Oligonucleotide = CTCAAGGC; value = -0.151
Oligonucleotide = CCACGTGC; value = 0.0156
Oligonucleotide = ATCGAATG; value = -0.154
Oligonucleotide = CTCAGGCC; value = 0.00348
Oligonucleotide = CATACGCG; value = 0.275
Oligonucleotide = ACCTTGCT; value = -0.241
Oligonucleotide = GCAGTACA; value = -0.0704
Oligonucleotide = AACATCAT; value = -0.149

A few entries again (set 2):
Oligonucleotide = GGGCCGCA; value = 0.252
Oligonucleotide = CCACGCGA; value = 0.422
Oligonucleotide = CCATCTGC; value = 0.296
Oligonucleotide = ACGTGAGC; value = 0.363
